# Experimental data pooled from the literature.
# Lines come from different studies, so protocols differ. Several values in a cell are separate wells, animals, samples, runs or records.
# Cell line: Vero
SMILES,observed,method,item,concentration,time,measurement,result
CC[C@@H](C)[C@H]1O[C@@H](c2c(O)c(-c3ccccc3)cn(OC)c2=O)[C@H](C)C[C@@H]1C,cytotoxicity,neutral red,,,48 h,IC50,> 4.76 µg/mL
CC(C)(O)Cc1nc(N)[nH]c(=O)c1Br,cell morphology alteration,,,,,minimum cytotoxic concentration,> 100 µM
[O-][n+]1ccccc1SSc1cccc[n+]1[O-],cytotoxicity,,,,,IC50,12.9 µM
Cc1nn(-c2ccc(Cl)cc2)c2c1C(c1ccc(I)cc1)C(C#N)=C(N)O2 (stereo not shown),,MTT,,100 µM,,viability,52.9%
CCCCCc1nc(N)[nH]c(=O)c1Br,cell morphology alteration,,,,,minimum cytotoxic concentration,> 100 µM
CC(C)C[C@H](NC(=O)[C@H](C)NC(=O)[C@@H](NC(=O)[C@H](CCCNC(=N)N)NC(=O)[C@H](CC(C)C)NC(=O)[C@H](Cc1c[nH]c2ccccc12)NC(=O)[C@@H]1CCCN1C(=O)[C@@H](N)CCCCN)C(C)C)C(=O)N[C@@H](CS)C(=O)N1CCC[C@H]1C(=O)NCC(=O)O,,WST-1,,8 µM,24 h,viability,99.7% and 76% and 97.5%
O=[N+]([O-])c1cn2c(n1)OC[C@@H](OCc1ccc(N3CCCCC3)nc1)C2,cytotoxicity,,,,,IC50,> 100 µg/mL
NC(=O)c1ncn([C@@H]2O[C@H](CO)[C@@H](O)[C@H]2O)n1,cell morphology alteration,,,,,minimum cytotoxic concentration,> 250 µM
O=C1CSCCN1c1ccc(CO[C@@H]2COc3nc([N+](=O)[O-])cn3C2)cc1F,cytotoxicity,,,,,IC50,> 100 µg/mL
Cc1nn(-c2ccc(Cl)cc2)c2c1C(c1c(Cl)cccc1Cl)C(C#N)=C(N)O2 (stereo not shown),,MTT,,25 µM,,viability,53.4%
Cn1c(C(=O)Nc2ccc(Cl)cc2)cc2c(=O)n3ccccc3nc21,,MTT,,6.3 µM,24 (unit not given),viability,75.7%
NC(=O)c1ncn([C@@H]2O[C@H](CO)[C@@H](O)[C@H]2O)n1,,,cell morphology,,,minimal cytotoxic concentration,> 250 µM
Cc1ccc(NC(=O)c2cc3c(=O)n4cccc(C)c4nc3n2C)cc1Cl,,MTT,,100 µM,24 (unit not given),viability,48%
N#C[Se]CC1Cc2cccc(Oc3cccc(F)c3)c2O1 (racemic),cell viability,AlamarBlue,,,,EC50,> 10 µM
CCc1ccc(NC(=O)c2cc3c(=O)n4ccccc4nc3n2C)cc1,,MTT,,1.6 µM,24 (unit not given),viability,84.2%
N#C[Se]CC1Cc2ccc(Oc3cccc(F)c3)cc2O1 (racemic),cell viability,AlamarBlue,,,,EC50,> 10 µM
Cc1nn(-c2ccc(Cl)cc2)c2c1C(c1ccc(Cl)cc1Cl)C(C#N)=C(N)O2 (stereo not shown),cytotoxicity,MTT,,,,IC50,34.8 µM
CC(=O)c1cccc(NC(=O)c2cc3c(=O)n4ccccc4nc3n2C)c1,,MTT,,100 µM,24 (unit not given),viability,44%
COc1cc(C2C(C#N)=C(N)Oc3c2c(C)nn3-c2ccc(Cl)cc2)cc(OC)c1OC (stereo not shown),,MTT,,100 µM,,viability,48.4%
O=C(Nc1ccccc1F)c1cc2c(=O)n3ccccc3nc2n1Cc1ccccc1,,MTT,,25 µM,24 (unit not given),viability,49.5%
Cc1nn(-c2ccc(Cl)cc2)c2c1C(c1ccc(F)cc1F)C(C#N)=C(N)O2 (stereo not shown),,MTT,,100 µM,,viability,44.6%
Cc1cc(NC(=O)c2cc3c(=O)n4cccc(C)c4nc3n2C)ccc1Br,,MTT,,0.4 µM,24 (unit not given),viability,91.9%

# Some of these lines once more:
SMILES,observed,method,item,concentration,time,measurement,result
Cc1nn(-c2ccc(Cl)cc2)c2c1C(c1ccc(I)cc1)C(C#N)=C(N)O2 (stereo not shown),,MTT,,100 µM,,viability,52.9%
N#C[Se]CC1Cc2cccc(Oc3cccc(F)c3)c2O1 (racemic),cell viability,AlamarBlue,,,,EC50,> 10 µM
